Results collected from several papers.
Parts stem from different laboratories: compare values within a part only.
Chain of UniProt O95747 (whole entry, looked up): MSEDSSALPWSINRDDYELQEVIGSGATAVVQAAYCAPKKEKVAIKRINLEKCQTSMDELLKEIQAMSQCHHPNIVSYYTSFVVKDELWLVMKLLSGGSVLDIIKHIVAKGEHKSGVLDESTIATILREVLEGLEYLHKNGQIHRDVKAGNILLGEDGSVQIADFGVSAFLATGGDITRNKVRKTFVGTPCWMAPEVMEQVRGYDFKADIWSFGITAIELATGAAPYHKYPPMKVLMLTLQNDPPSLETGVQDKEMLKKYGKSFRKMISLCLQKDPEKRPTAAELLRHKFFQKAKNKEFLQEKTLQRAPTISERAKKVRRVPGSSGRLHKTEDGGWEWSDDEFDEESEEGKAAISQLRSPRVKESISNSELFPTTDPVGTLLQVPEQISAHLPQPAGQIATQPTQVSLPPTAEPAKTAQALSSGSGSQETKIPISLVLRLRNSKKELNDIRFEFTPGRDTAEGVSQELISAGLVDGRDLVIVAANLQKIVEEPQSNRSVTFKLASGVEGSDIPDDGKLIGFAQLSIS
Chain of UniProt P28335 (whole entry, looked up): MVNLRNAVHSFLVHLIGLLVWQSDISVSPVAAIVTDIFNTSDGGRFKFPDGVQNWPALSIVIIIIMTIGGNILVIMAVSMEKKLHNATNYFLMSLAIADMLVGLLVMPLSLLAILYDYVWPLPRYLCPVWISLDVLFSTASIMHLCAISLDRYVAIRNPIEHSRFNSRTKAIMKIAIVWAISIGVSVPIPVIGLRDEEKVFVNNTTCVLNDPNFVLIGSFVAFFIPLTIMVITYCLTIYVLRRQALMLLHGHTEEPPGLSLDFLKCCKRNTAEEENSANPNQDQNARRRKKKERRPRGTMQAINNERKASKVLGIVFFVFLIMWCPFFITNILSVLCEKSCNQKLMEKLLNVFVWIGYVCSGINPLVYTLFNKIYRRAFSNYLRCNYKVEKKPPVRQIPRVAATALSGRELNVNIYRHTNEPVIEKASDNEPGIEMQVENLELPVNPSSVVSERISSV
Chain of UniProt P53355 (whole entry, looked up): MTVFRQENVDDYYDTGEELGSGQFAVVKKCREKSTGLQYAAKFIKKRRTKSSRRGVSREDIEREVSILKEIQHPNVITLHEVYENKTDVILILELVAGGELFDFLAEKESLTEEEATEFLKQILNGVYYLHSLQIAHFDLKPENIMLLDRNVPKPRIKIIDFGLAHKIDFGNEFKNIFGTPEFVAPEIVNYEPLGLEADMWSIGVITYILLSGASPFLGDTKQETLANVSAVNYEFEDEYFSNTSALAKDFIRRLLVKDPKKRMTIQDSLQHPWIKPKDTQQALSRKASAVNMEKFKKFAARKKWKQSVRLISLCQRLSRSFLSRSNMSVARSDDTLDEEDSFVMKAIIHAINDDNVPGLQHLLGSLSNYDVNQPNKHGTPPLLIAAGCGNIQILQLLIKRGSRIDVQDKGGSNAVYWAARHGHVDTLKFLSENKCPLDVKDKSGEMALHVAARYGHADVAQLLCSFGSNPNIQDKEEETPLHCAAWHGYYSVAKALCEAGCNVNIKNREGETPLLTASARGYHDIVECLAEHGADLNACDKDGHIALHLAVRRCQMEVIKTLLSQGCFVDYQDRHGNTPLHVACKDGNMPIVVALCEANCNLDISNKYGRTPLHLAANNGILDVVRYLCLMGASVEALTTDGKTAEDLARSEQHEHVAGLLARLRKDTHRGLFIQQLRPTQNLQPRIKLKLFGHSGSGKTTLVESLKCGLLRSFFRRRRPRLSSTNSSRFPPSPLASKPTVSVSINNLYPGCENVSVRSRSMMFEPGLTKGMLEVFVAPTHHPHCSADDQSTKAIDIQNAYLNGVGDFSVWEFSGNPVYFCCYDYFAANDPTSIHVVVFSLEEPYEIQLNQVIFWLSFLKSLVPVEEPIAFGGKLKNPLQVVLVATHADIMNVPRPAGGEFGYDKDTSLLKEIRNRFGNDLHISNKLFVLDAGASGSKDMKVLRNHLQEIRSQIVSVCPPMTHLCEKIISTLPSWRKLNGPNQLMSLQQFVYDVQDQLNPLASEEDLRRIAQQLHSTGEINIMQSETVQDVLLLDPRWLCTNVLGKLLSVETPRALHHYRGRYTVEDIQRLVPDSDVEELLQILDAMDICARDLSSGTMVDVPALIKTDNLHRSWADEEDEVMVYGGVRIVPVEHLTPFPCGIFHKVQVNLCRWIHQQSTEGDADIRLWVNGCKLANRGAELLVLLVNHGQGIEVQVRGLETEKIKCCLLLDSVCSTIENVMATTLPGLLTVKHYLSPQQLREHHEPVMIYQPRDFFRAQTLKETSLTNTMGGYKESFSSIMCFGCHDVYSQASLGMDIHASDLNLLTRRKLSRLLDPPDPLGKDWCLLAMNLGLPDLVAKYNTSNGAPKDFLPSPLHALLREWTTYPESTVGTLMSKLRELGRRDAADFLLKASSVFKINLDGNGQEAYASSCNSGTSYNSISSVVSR
Chain of UniProt P35626 (whole entry, looked up): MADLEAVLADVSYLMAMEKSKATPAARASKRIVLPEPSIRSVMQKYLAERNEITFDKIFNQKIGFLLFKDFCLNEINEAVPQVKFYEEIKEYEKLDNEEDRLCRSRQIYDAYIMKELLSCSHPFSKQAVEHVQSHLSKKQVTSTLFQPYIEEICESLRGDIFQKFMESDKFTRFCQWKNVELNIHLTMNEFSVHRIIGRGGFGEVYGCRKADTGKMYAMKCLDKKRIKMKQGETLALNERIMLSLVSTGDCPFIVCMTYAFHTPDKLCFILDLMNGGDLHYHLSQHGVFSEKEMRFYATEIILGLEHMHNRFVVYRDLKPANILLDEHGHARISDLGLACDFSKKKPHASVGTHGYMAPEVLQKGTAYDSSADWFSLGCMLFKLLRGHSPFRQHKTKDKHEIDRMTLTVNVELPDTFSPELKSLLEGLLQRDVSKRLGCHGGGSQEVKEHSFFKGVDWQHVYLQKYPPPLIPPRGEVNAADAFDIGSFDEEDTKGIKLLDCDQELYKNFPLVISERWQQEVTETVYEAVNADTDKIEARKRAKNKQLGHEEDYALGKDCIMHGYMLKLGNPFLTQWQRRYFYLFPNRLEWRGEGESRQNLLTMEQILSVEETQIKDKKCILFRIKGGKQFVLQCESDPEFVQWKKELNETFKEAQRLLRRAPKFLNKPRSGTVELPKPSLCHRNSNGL
Chain of UniProt Q99759 (whole entry, looked up): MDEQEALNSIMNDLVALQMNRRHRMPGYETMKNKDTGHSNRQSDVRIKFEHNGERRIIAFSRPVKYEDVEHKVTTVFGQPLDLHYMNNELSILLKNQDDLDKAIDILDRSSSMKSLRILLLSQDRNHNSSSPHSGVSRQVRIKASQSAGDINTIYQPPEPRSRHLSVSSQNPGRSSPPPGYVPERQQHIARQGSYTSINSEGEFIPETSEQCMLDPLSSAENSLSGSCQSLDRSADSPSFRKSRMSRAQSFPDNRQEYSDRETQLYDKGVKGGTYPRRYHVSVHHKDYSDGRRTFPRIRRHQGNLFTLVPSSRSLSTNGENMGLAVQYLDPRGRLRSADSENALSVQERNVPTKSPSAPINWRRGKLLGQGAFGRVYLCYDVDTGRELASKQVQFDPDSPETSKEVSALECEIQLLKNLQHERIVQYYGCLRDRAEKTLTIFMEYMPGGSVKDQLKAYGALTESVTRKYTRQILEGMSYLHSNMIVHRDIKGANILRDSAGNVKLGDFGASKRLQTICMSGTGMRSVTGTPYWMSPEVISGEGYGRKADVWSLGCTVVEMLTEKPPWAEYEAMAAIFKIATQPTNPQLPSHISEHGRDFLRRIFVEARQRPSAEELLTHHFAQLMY
Chain of UniProt P51955 (whole entry, looked up): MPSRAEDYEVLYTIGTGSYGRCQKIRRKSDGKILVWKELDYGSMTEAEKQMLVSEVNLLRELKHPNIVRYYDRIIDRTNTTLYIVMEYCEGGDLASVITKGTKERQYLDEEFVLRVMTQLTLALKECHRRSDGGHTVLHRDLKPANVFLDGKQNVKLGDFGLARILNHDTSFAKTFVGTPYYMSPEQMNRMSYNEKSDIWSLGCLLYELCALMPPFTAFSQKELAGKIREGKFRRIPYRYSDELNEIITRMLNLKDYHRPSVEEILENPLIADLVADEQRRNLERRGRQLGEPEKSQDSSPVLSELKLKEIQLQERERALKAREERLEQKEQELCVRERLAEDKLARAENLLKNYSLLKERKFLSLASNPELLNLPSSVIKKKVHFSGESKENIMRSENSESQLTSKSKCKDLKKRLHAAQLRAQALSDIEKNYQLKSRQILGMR
Chain of UniProt O96017 (whole entry, looked up): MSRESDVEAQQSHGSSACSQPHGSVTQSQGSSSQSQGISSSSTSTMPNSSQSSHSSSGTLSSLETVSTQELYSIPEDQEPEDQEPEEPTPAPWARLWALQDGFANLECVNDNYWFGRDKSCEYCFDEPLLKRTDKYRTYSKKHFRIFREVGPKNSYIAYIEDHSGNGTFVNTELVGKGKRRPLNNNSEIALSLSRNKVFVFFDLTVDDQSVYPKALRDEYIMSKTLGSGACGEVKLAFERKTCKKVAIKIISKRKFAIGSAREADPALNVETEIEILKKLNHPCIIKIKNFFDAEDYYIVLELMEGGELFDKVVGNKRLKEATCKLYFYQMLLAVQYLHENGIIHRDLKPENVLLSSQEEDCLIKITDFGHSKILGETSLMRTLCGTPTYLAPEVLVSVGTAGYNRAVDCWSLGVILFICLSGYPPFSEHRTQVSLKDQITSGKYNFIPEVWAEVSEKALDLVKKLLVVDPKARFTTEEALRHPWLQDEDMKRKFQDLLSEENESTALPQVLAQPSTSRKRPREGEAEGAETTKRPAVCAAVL

Sample 1 — cell line: HEK-293T; observed: pseudovirus infection; method: FDA-approved drug library counter-screen; organism: VSV pseudotyped with VSV-G; concentration: 10 µM; time: 16 h; relative to: vehicle-treated; endpoint: GFP-positive cells
CC(=O)O[C@]1(C(C)=O)CC[C@H]2[C@@H]3C=C(C)C4=CC(=O)CC[C@]4(C)[C@H]3CC[C@@]21C: 120%
Cc1cccc(C)c1NC(=O)C1CCCCN1C (centres unmarked): 88.6%
CN(C)CCCN1c2ccccc2Sc2ccccc21: 111%
O=C1c2c(O)ccc(O)c2C(=O)c2c(NCCNCCO)ccc(NCCNCCO)c21: 62.5%
CCCC1O[C@@H]2C[C@H]3[C@@H]4CCC5=CC(=O)C=C[C@]5(C)[C@H]4[C@@H](O)C[C@]3(C)[C@]2(C(=O)CO)O1 (some centres unmarked): 128%
Cc1ccc(C)c(OCCCC(C)(C)C(=O)O)c1: 104%
COc1ccnc(C[S+]([O-])c2nc3ccc(OC(F)F)cc3[nH]2)c1OC (centres unmarked): 102%
CC(=O)OCC(=O)[C@@]12OC(C)(C)O[C@@H]1C[C@H]1[C@@H]3C[C@H](F)C4=CC(=O)C=C[C@]4(C)[C@@]3(F)[C@@H](O)C[C@@]12C: 108%
O=c1cc[nH]c(=O)[nH]1: 110%
CC(=O)O[C@H]1C(=O)[C@@]2(C)[C@H]([C@H](OC(=O)c3ccccc3)[C@]3(O)C[C@H](OC(=O)[C@H](O)[C@@H](NC(=O)c4ccccc4)c4ccccc4)C(C)=C1C3(C)C)[C@]1(OC(C)=O)CO[C@@H]1C[C@@H]2O: 102%
CC1(C)S[C@@H]2[C@H](NC(=O)[C@H](NC(=O)N3CCNC3=O)c3ccccc3)C(=O)N2[C@H]1C(=O)O: 143%
COC(=O)/C=C/C(=O)OC: 89.6%
OC[C@@H](O)[C@@H](O)[C@H](O)[C@H](O)CO: 114%
O=S(=O)(O)CCS: 111%
Cc1nc(-c2ccc(OCC(C)C)c(C#N)c2)sc1C(=O)O: 99.6%
COc1cnc(NS(=O)(=O)c2ccc(N)cc2)nc1: 88.9%
COc1cc(NC(C)CCCN)c2ncccc2c1 (centres unmarked): 91.7%
CN1CC(=O)N2[C@H](c3ccc4c(c3)OCO4)c3[nH]c4ccccc4c3C[C@@H]2C1=O: 94.9%
C/C(O)=C(\C#N)C(=O)Nc1ccc(C(F)(F)F)cc1: 33.3%
CCOC(=O)O[C@]1(C(=O)OCCl)CC[C@H]2[C@@H]3CCC4=CC(=O)C=C[C@]4(C)[C@H]3[C@@H](O)C[C@@]21C: 110%
CCCNC(C)C(=O)Nc1c(C)csc1C(=O)OC (centres unmarked): 130%
C[C@@H]1O[C@@H]1P(=O)(O)O: 97.7%
Cc1ccc(C(=O)c2cc(O)c(O)c([N+](=O)[O-])c2)cc1: 98.3%
CN(C)[C@@H]1C(O)=C(C(N)=O)C(=O)[C@@]2(O)C(O)=C3C(=O)c4c(O)cccc4[C@@](C)(O)[C@H]3C[C@@H]12: 81.8%
CCN(CC)CCCC(C)Nc1ccnc2cc(Cl)ccc12 (centres unmarked): 104%

Sample 2 — observed: enzyme activity; mode: inhibitor; concentration: 0.5 µM; relative to: control; endpoint: remaining activity
SMILES: COc1ccc2c(c[n+](C)c3c4cc5c(cc4ccc23)OCO5)c1OC
Mitogen-activated protein kinase kinase kinase 3 (MAP3K3, Homo sapiens, UniProt Q99759): 101%
Inhibitor of nuclear factor kappa-B kinase subunit epsilon (IKBKE, Homo sapiens, UniProt Q14164): 101%
STE20/SPS1-related proline-alanine-rich protein kinase (STK39, Homo sapiens, UniProt Q9UEW8): 90.8%
cGMP-dependent protein kinase 1, isoform beta (PRKG1, Homo sapiens, UniProt Q13976): 97.6%
Serine/threonine-protein kinase OSR1 (OXSR1, Homo sapiens, UniProt O95747): 94.8%
Tyrosine-protein kinase Lyn, isoform B (LYN, Homo sapiens, UniProt P07948): 95.4%
Serine/threonine-protein kinase 10 (STK10, Homo sapiens, UniProt O94804): 92.7%
G protein-coupled receptor kinase 3 (GRK3, Homo sapiens, UniProt P35626): 88.4%
TGF-beta receptor type-2 (TGFBR2, Homo sapiens, UniProt P37173): 71.6%
Cyclin-dependent kinase 5, with p25 (CDK5, Homo sapiens, UniProt Q00535): 86.2%
Serine/threonine-protein kinase Chk2 (CHEK2, Homo sapiens, UniProt O96017): 96.5%
Protein kinase C beta type, isoform beta-I (PRKCB, Homo sapiens, UniProt P05771): 100%
Serine/threonine-protein kinase Nek2 (NEK2, Homo sapiens, UniProt P51955): 98.6%
Death-associated protein kinase 1 (DAPK1, Homo sapiens, UniProt P53355): 86.7%

Sample 3 — cell line: mouse MPNST tumor cells; method: high-content nuclear imaging; item: cell number; concentration: 10 µM; time: 12 h; notes: mean of 2 replicates; relative to: plate mean; reading: higher = more cells; endpoint: nuclei count
COc1ccccc1CN[C@H]1C2CCN(CC2)[C@H]1C(c1ccccc1)c1ccccc1: 1.8 z-score
Cc1sc2c(c1C)C(c1ccc(Cl)cc1)=NC(CC(N)=O)c1nnc(C)n1-2 (centres unmarked): -2.54 z-score
O=c1cccc2n1CC1CC2CN(CCN2CC3CC(C2)c2cccc(=O)n2C3)C1: -0.47 z-score
COc1ccc(Cc2nccc3cc(OC)c(OC)cc23)cc1OC: 0.116 z-score
CC(N)Cc1c[nH]c2ccc(O)cc12 (centres unmarked): -0.358 z-score
COC[C@@H](NC(C)=O)C(=O)NCc1ccccc1: -0.598 z-score
CC(C)(C)NCC(O)c1cc(Cl)c(N)c(Cl)c1 (centres unmarked): 0.505 z-score

Single results of other studies
CRK2: Cyclin-dependent kinase 2 homolog (CRK2, Plasmodium falciparum, UniProt P61075)
Chain of UniProt P61075 (whole entry, looked up): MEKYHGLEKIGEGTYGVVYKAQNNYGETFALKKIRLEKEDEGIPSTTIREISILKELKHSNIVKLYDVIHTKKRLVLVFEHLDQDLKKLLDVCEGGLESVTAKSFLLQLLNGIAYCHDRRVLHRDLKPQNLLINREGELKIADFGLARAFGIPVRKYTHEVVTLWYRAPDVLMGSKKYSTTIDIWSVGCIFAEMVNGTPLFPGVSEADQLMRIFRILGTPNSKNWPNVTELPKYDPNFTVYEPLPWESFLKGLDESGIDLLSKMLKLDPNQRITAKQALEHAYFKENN
O=C(Nc1cccnn1)N1CCC(=Cc2cccc(Oc3ccc(C(F)(F)F)cn3)c2)CC1
inhibition (5-hydroxytryptamine receptor 2C (HTR2C, Homo sapiens, UniProt P28335); binding, radioligand binding; 10 µM): 64.6%

COc1ccc2cc(OCC3(C(=O)O)CN(C(=O)c4ccc(F)cc4)C3)ccc2c1
remaining binding (CRK2; cell-free assay, competition with immobilised ligand; 1 µM): 97%

CC(=O)N1CCC(c2ccc(C(=O)NC3=NCCN3)cc2C(F)(F)F)CC1
remaining binding (CRK2; cell-free assay, competition with immobilised ligand; 1 µM): 100%

CC(C)CC(=O)N1CCc2nc(-c3ccc(Br)cc3)nc(N(C)Cc3ccccc3)c2C1
remaining binding (CRK2; cell-free assay, competition with immobilised ligand; 0.1 µM): 100%

For quick reference, copied from above (sample 2):
Cyclin-dependent kinase 5, with p25 (CDK5, Homo sapiens, UniProt Q00535): 86.2%
Serine/threonine-protein kinase Chk2 (CHEK2, Homo sapiens, UniProt O96017): 96.5%
Protein kinase C beta type, isoform beta-I (PRKCB, Homo sapiens, UniProt P05771): 100%
